Published values from different studies.
Each line is one published result; not all experiments were run side by side.

COc1cc(N2CCC(N3CCN(C)CC3)CC2)ccc1Nc1ncnc(Nc2ccccc2S(=O)(=O)C(C)C)n1 — Cmax (human, dose escalation arm, plasma; oral, 25 mg, day 1, mean): 49.7 ng/mL
CC(C)[C@H](N)C(=O)NCCCS(=O)(=O)O — Cmax (human, plasma; oral, 256.5 mg twice daily days 2-7, day 7, fasted, capsule): 10000 ng/mL
CCN1CCN(Cc2ccc(Nc3ncc(F)c(-c4cc(F)c5nc6n(c5c4)[C@H](C)CCC6)n3)nc2)CC1 — Cmax (human, plasma; 300 mg single dose, mean): 136 ng/mL
Cl.[2H]C([2H])([2H])CC(=O)c1cnc(NC(=O)C2CC2)cc1Nc1cccc(-c2ncn(C([2H])([2H])[2H])n2)c1OC — Cmax (geometric mean; human; oral, 5 mg single dose, fasted, liquid): 38.6 ng/mL
C[C@@H](Nc1cc(F)cc(F)c1)c1cc(C(=O)N(C)C)cc2c(=O)cc(N3CCOCC3)oc12 — Cmax (human; oral, 180 mg twice daily, day 1, 5:2 schedule, single dose, geometric mean): 1650 ng/mL
O=C(COc1ccc(Cl)cc1)NC12CC(c3nnc([C@H]4C[C@@H](OC(F)(F)F)C4)o3)(C1)C2 — Cmax (healthy human volunteers fasted, plasma; oral, 15 mg single dose, geometric mean): 169 nM
C=CCn1c(=O)c2cnc(Nc3ccc(N4CCN(C)CC4)cc3)nc2n1-c1cccc(C(C)(C)O)n1 — Cmax (human; oral, 150 mg twice daily, monotherapy lead-in, -5 days; geometric mean): 703 nM
CCn1cc(C(=O)N2CCOCC2)c(=O)c2cc(NC3Cc4ccccc4C3)cnc21 — Cmax (human, fed; oral suspension, 300 mg single dose, arithmetic mean): 1570 ng/mL
C=CC(=O)N(C)CCOc1c(N)ncnc1-c1cc(F)cc(NC(=O)c2ccc(C3CC3)cc2F)c1C — Cmax (human, whole blood; oral, 400 mg single dose): 432 ng/mL
CN1C(=O)[C@@H](NC(=O)c2nnc(Cc3ccccc3)[nH]2)COc2cccnc21 — Cmax (human, plasma; oral, 50 mg once daily, day 14, geometric mean): 1180 ng/mL
COc1ncc(-c2nc3c(n2C(C)C)[C@H](c2ccc(Cl)cc2)N(c2cc(Cl)cn(C)c2=O)C3=O)c(OC)n1 — Cmax (LC-MS/MS, noncompartmental; human, plasma; oral, 120 mg, C1D1, high-dose, geometric mean): 1040 ng/mL

Some of these lines once more:
CCn1cc(C(=O)N2CCOCC2)c(=O)c2cc(NC3Cc4ccccc4C3)cnc21 — Cmax (human, fed; oral suspension, 300 mg single dose, arithmetic mean): 1570 ng/mL
C[C@@H](Nc1cc(F)cc(F)c1)c1cc(C(=O)N(C)C)cc2c(=O)cc(N3CCOCC3)oc12 — Cmax (human; oral, 180 mg twice daily, day 1, 5:2 schedule, single dose, geometric mean): 1650 ng/mL
